Measured values gathered from unrelated publications.
Each line is one published result; not all experiments were run side by side. Numbers after ± are the reported error.

C=Cc1cc(O)cc2nc(-c3ccc(O)c([76Br])c3)oc12  tissue uptake (female C57BL/6 mouse, kidney; 6 h, high dose): 0.3 ± 0.12 %ID/g
CCCC[C@H](NC(=O)CN1CCC(NC(=O)CN2CCC(NC(=O)CN3CCN(CC(=O)O)CCN(CC(=O)O)CCN(CC(=O)O)CC3)CC2)CC1)C(=O)N[C@H]1CC(=O)NCCCC[C@@H](C(N)=O)NC(=O)[C@H](Cc2c[nH]c3ccccc23)NC(=O)[C@H](CCCNC(=N)N)NC(=O)[C@@H](Cc2ccccc2)NC(=O)[C@H](Cc2c[nH]cn2)NC1=O [gallium-68 labelled]  tissue uptake (biodistribution; C57BL/6J mouse male tumour-bearing, adrenal glands; 1 h post injection, unblocked): 0.2 ± 0.1 %ID/g
N=C(N)NCc1ccc(C(=O)NCCCC[C@H](NC(=O)CCCCCCC(=O)NCCCC[C@H](NC(=O)N[C@@H](CCC(=O)O)C(=O)O)C(=O)O)C(=O)O)cc1[131I]  tissue uptake (SCID mouse, PC-3 xenografts, bone; 21 h): 0.02 ± 0.01 %ID/g
CN[C@](C)(C[18F])C(=O)O  tissue uptake (SCID mouse U87 xenograft, liver; 120 min, post injection): 3.9 ± 1.5 %ID/g
N=C(N)NCc1ccc(C(=O)NCCCC[C@H](NC(=O)N[C@@H](CCC(=O)O)C(=O)O)C(=O)O)cc1[211At]  tissue uptake (SCID mouse, PC-3 xenografts, muscle; 4 h): 0.23 ± 0.1 %ID/g
CC[C@H](C)[C@@H]1NC(=O)[C@@H](NC(=O)CNC(=O)c2ccc(F)cc2)CSSC[C@@H]2NC(=O)[C@H](C)NC(=O)CNC(=O)[C@@H]3CCCN3C(=O)[C@@H]3CSSC[C@@H](C(=O)NCC(=O)O)NC(=O)[C@H](Cc4ccc(O)cc4)NC(=O)CNC(=O)[C@H](CC(N)=O)NC(=O)CNC(=O)[C@H](CCCNC(=N)N)NC(=O)[C@H](CSSC[C@H](NC(=O)[C@H](CCCNC(=N)N)NC(=O)[C@H](Cc4ccccc4)NC(=O)[C@H](CC(C)C)NC(=O)[C@H](CC(C)C)NC(=O)[C@H]([C@@H](C)O)NC(=O)CNC(=O)[C@H](CC(C)C)NC(=O)[C@H](CC(=O)O)NC(=O)[C@H]([C@@H](C)O)NC(=O)[C@H](CCCNC(=N)N)NC(=O)[C@H](CCSC)NC(=O)[C@H](CC(N)=O)NC(=O)[C@H](CC(C)C)NC1=O)C(=O)N[C@@H](CCCNC(=N)N)C(=O)N[C@@H](CCCNC(=N)N)C(=O)N[C@@H](CC(=O)O)C(=O)N[C@@H](CO)C(=O)N[C@@H](CC(=O)O)C(=O)N3)NC(=O)[C@H]([C@@H](C)CC)NC2=O [fluorine-18 labelled]  tissue uptake (PET; nu/nu mouse, female, BxPC-3 xenograft, liver; intravenous, 1 h): 1.2 ± 0.2 %ID/g
C[S]1CC[S]2CC[P](CO)(CO)[99Tc+]12.[C-]#[O+].[C-]#[O+].[C-]#[O+]  tissue uptake (female CF-1 mouse, large intestine; intravenous, 4 h): 58.2 %ID/g
N=C(N)NCc1ccc(C(=O)NCCCC[C@H](NC(=O)N[C@@H](CCC(=O)O)C(=O)O)C(=O)O)cc1[131I]  tissue uptake (SCID mouse, PC-3 xenografts, liver; 21 h): 0.16 ± 0.03 %ID/g
CCCC[C@H](NC(=O)CCOCCOCCNC(=O)CN1CCN(CC(=O)O)CCN(CC(=O)O)CCN(CC(=O)O)CC1)C(=O)N[C@H]1CC(=O)NCCCC[C@@H](C(N)=O)NC(=O)[C@H](Cc2c[nH]c3ccccc23)NC(=O)[C@H](CCCNC(=N)N)NC(=O)[C@@H](Cc2ccccc2)NC(=O)[C@H](Cc2c[nH]cn2)NC1=O [gallium-68 labelled]  tissue uptake (biodistribution; C57BL/6J mouse male tumour-bearing, seminal vesicle; 1 h post injection, unblocked): 0.2 ± 0.1 %ID/g
O=C(O)CC[C@H](NC(=O)O[C@@H](CCCCNC(=O)c1ccc([18F])cc1)C(=O)O)C(=O)O  tissue uptake (mouse, PC-3 PIP/flu xenografts, bone; 60 min): 0.72 ± 0.31 %ID/g
COc1cc2ncnc(Oc3cccc(N[11C](=O)Nc4cc(C(C)(C)C(F)(F)F)on4)c3)c2cc1OC  tissue uptake (Balb/c nude mouse, female, A375 melanoma xenograft, skin; 6.6 MBq, 60 min): 2.57 ± 0.18 %ID/g

Excerpt of the above:
N=C(N)NCc1ccc(C(=O)NCCCC[C@H](NC(=O)N[C@@H](CCC(=O)O)C(=O)O)C(=O)O)cc1[211At]  tissue uptake (SCID mouse, PC-3 xenografts, muscle; 4 h): 0.23 ± 0.1 %ID/g
